Experimental data collected from several papers.
Numbered parts are unrelated; each lists some results of a single study.

Sample 1 — method: protein-binding microarray; molecule type: double-stranded DNA, one strand shown; matrix: in vitro; concentration: 2200 nM top; setting: 60-bp whole probe; together with: salmon DNA 0.4 mg/ml; reference: random background probes; direction: higher = stronger binding; shared flanks, not repeated: GCCTAGCAC … GTCTTGATTCGCTTGACGCTGCTG
Target: Interferon regulatory factor 7, full length, phosphomimetic (IRF7, Homo sapiens, UniProt Q92985, residues 1-503, S471D/S472D/S475D/S476D/S477D/S483D/S484D/S487D)
Sequence of UniProt Q92985 (whole entry, unmodified, looked up): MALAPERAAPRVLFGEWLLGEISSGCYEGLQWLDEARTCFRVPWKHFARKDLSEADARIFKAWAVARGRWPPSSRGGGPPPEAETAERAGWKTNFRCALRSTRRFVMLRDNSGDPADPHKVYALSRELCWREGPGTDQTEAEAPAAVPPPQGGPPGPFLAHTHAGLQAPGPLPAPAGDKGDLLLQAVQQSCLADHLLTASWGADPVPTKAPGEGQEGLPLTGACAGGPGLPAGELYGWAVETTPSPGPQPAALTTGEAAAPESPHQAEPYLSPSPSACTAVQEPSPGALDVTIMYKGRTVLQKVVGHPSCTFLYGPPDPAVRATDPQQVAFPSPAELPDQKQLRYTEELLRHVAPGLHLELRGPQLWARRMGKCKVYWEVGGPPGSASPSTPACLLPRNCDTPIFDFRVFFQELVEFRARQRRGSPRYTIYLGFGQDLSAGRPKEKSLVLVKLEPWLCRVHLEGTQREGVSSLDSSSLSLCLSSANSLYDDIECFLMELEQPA
Strand | fitted relative affinity
TTAGAACTGAGTATCGATTCGTGCTAG | 0.45 z-score
GACGGACTGGACTTTCGGGAGGTGCTA | 1.19 z-score
TTAGGACTGGGTATCGGGTAGTGCTAG | -0.635 z-score
GACGGTATCGGACTGGGTACGTGCTAG | -0.33 z-score
GAAAATTTCTTCCTCCCCCTGTGCTAG | 1.13 z-score
AAAAAAATCATTTTCTCTGTGTGCTAG | -0.231 z-score

Sample 2 — method: RNA Bind-n-Seq; molecule type: RNA; matrix: in vitro; concentration: 365 nM; reference: no-protein control; direction: higher = stronger binding
Target: RNA binding protein fox-1 homolog 2, RRM domain, GST-SBP tag (RBFOX2, Homo sapiens, UniProt O43251-10, residues 100-194)
Setting: natural RNA segment, single round, ends assumed
Shared flanks, not repeated: GGGAGUUCUACAGUCCGACGAUC … UGGAAUUCUCGGGUGCCAA
Construct (chain): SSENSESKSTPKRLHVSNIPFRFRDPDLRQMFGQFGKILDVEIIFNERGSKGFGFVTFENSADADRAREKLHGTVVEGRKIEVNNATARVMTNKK
Strand | RBNS enrichment (R)
GACAUUGUCUUCUACUGUUCUGCCAGGUUCUUCUUGAGCUUUGGGCCUCAGUUGCCCUGGCAGAAAAAUGGAUUCAACUUGGCCUUUCUGAAGGCAAGACUGGGAUUGGA | 0.456
AACAACUUGAAGAUUGUAGCAAUAAGCUGGACUAGUGUCCUAAAAAUGGCUAACUGAUGAAUUAGAAGCCAUCUGACAGCAGGCCACUAGUGACAGUUUCUUUUGUGUUC | 0.272
CUGGCCUGCUCUUUGGUACCAGCUGUGACUUUUCAGUUUCUCCUGCUUUGAGGUUGUUCACGAAACUAGAAAUGUCAUUCCAGCUUGAUUGUUUUAUCAUCAGCCAAGUU | 0.823
UAGACCCUUCAUCUCUUACUUGAUAGACUUACUAAUAAAAUGUGAAGACUAGACCAAUUGUCAUGCUUGACACAACUGCUGUGGCUGGUUGGUGCUUUGUUUAUGGUAGU | 0.38
CCUGGGCAGGGUCUGUGGCUGCGCCCCUCAGGCCAGCAGUUGAGGUCCAUCGGGCUGGCCCCAGCCCAUCUGCUGGCAUCAGUACCUGGUGUUGGGACAGCAGGAUAGGG | 0.43
AAAAUUCAAAUGCACUUAUGUUCUCAUUCUAUGGCCAUUGUGUUGCCUCUGUUACUGUUUGUAUUGAAUAAAAACAUCUUCAUGUGGGCUGGGGUAGAAACUGGUGUCUG | 0.569

Sample 3 — method: protein-binding microarray; molecule type: double-stranded DNA, one strand shown; matrix: in vitro; concentration: 0.8 µM; setting: whole 60-bp probe, no competitor; direction: higher = stronger binding; shared flanks, not repeated: … GTCTTGATTCGCTTGACGCTGCTG
Target: Centromere-binding protein 1, full length, N-terminal tag (CBF1, Saccharomyces cerevisiae, UniProt P17106, residues 1-351)
Sequence of UniProt P17106 (whole entry, looked up): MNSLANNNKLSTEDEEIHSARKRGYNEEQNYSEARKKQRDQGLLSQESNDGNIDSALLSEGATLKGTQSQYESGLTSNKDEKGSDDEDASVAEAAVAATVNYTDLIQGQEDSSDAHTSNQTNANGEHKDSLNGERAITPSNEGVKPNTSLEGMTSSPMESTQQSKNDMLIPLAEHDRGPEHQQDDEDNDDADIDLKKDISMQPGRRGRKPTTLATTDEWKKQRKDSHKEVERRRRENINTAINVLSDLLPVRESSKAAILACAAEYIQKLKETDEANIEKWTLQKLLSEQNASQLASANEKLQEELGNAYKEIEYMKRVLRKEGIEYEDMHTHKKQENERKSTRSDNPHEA
Strand | fluorescence intensity
GAAGGCTTTTTCTATAACGTGTATTATGAAAAATAG | 681 a.u.
GAATCTAAGTTACCCCTCATGACTTCCCAAGTGTAG | 592 a.u.
GAAAGTGACAACGAGCACGGGTGCACCATATGGTAG | 677 a.u.
CTACGCTGCCCAATCCACGTGGAAAAATCCTGTTTC | 2210 a.u.
GAACTTGGAGAATAACATGTGATCTGAAAACTCTAG | 4300 a.u.
GAAATTGTCAGTATTGTTGTGACCATTCTTGATTAG | 538 a.u.
GAAGCGCGCCAACCTCACGTTTGCATTCTTGAATAG | 520 a.u.

Further values, each from its own experiment
Molecule | target | assay | test system | conditions | scale | endpoint | value
PhoQ, residues 284 288 289 292 302 303 SSCCRF | PhoP, residues 12 14 15 18 19 NMSFL (Escherichia coli, UniProt P23836) | Sort-seq, measured: YFP reporter | E. coli | PhoQ-PhoP variant library, together with: 10 µM Mg2+ | reference: high Mg2+ state, higher = stronger signaling | fold induction | 10.2

Some of these lines once more (sample 1):
Strand | fitted relative affinity
AAAAAAATCATTTTCTCTGTGTGCTAG | -0.231 z-score
TTAGAACTGAGTATCGATTCGTGCTAG | 0.45 z-score
